# Assay results gathered from unrelated publications.
# Parts stem from different laboratories: compare values within a part only. Substitutions count along the parent as printed.

# Study 1 — technique: protein binding microarray; form: double-stranded DNA, one strand shown; sample: in vitro; tested at: not given; relative to: not given; direction: higher = stronger binding
# Target: Histone acetyltransferase KAT6A, winged helix 1, GST fusion (KAT6A, Homo sapiens, UniProt Q92794, residues 1-85)
# Setting: 8-mer, flanks averaged, mean of 2 arrays, mostly near background
# Target sequence (chain): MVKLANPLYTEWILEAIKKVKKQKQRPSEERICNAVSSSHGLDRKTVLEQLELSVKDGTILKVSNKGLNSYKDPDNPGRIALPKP
Oligonucleotide,E-score
CTCTAAAG,-0.229
CTATATCC,-0.111
ATACACGC,0.236
CGGGTCCA,0.125
TATCAAGA,-0.318
GAAGTTAA,-0.0228
TCTCGAAA,-0.162
CCGTGAAG,0.287
AGTAACCG,0.175
CAACTGAC,-0.0454
CAAGCGGG,0.276
ATCTTAAT,-0.171
CCTCTCAC,-0.234
GCCAAAGC,0.145
CGCTGTCC,0.231
GGGACCAA,-0.0596

# Study 2 — technique: universal PBM; form: double-stranded DNA, one strand shown; sample: in vitro; tested at: 600 nM; direction: higher = stronger binding
# Target: Sal-like protein 4, full length isoform A (SALL4, Homo sapiens, UniProt Q9UJQ4, residues 1-1053)
# Sequence of UniProt Q9UJQ4 (whole entry, looked up): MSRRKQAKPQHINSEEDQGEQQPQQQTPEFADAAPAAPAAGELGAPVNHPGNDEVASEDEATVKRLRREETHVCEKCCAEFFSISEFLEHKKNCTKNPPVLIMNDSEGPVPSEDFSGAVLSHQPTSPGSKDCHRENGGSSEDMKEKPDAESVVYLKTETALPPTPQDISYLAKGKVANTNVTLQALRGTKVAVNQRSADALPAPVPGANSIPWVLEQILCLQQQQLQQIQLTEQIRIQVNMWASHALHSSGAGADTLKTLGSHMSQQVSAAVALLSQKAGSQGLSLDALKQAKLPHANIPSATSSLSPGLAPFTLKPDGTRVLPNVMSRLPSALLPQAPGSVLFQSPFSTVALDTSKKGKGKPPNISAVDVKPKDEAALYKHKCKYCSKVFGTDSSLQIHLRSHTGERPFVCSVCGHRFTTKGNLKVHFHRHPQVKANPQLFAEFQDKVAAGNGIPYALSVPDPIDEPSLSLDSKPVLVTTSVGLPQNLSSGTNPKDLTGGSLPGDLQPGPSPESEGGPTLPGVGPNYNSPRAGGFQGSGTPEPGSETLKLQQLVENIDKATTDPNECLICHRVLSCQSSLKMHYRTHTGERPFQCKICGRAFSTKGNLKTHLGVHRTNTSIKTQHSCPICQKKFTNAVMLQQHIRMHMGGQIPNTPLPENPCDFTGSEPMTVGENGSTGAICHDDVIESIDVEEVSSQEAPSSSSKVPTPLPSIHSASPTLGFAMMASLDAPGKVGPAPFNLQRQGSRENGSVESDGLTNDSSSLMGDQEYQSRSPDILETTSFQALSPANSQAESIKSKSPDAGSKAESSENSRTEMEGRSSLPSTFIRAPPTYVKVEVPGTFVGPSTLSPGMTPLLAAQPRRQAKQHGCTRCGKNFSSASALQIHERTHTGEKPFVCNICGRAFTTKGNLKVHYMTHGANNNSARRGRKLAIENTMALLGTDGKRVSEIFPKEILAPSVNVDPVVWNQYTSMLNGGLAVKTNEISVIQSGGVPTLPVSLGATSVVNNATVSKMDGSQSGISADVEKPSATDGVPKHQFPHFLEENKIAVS
# Setting: 8-mer, flanks averaged, mean of replicates
Oligonucleotide,E-score
GAGGACTC,-0.183
GATGGCAA,0.0884
CCTTAGTA,-0.008
AGCAACTG,-0.0907
ACACCCAC,-0.21
AAATTGGT,0.189
AAATCAGG,0.0744
ACAGTATG,0.115
CTTGTGCC,-0.148
AGCACTGC,-0.134
CCGTCAGC,-0.244

# Study 3 — target: CCNB3, cyclin fold, Cln2 fusion (human); technique: yeast growth competition, sequencing; sample: yeast; setting: strong parent motif; relative to: not given; direction: higher = stronger binding
# Starting sequence: RBL2 docking peptide (human); STTRRRLFVENDS; partner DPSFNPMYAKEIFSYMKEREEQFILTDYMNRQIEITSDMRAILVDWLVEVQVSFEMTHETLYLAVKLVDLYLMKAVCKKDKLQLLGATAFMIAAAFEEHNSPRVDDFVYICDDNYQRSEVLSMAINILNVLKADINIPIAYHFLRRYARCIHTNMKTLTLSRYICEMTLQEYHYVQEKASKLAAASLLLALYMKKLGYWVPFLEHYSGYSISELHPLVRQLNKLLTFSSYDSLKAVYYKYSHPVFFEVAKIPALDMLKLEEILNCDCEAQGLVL
Change,normalised enrichment score
STTRRRLFCENDS [V9C],1.79
STTRLRLFVENDS [R5L],0.00645
SATRRRLFVENDS [T2A],0.974
STTRTRLFVENDS [R5T],0.757
STARRRLFVENDS [T3A],1.79
STWRRRLFVENDS [T3W],0.376
STTRRRLFVEFDS [N11F],0.601
STTRRRLFWENDS [V9W],1.03

# Single results of other studies
Molecule,target,assay,system,setting,scale,endpoint,result
"PhoQ, residues 284 288 289 292 302 303 ALAMYF","PhoP, residues 12 14 15 18 19 QWHVF (Escherichia coli, UniProt P23836)","Sort-seq, refers to: YFP reporter",E. coli,"PhoQ-PhoP variant library, together with: 10 µM Mg2+","relative to: high Mg2+ state, higher = stronger signaling",fold induction,2.83

# Excerpt of the above (study 3):
Change,normalised enrichment score
STARRRLFVENDS [T3A],1.79
STTRRRLFWENDS [V9W],1.03
STTRLRLFVENDS [R5L],0.00645
STTRRRLFCENDS [V9C],1.79
STTRTRLFVENDS [R5T],0.757
STTRRRLFVEFDS [N11F],0.601
